# Experimental data of several laboratories.
# Each line is one published result; not all experiments were run side by side. Values joined by “and” are separate records of one study, mostly repeats; a detail may differ. ± marks the error that the study gave.
SMILES,test,system,conditions,scale,endpoint,value
COc1cc(Nc2ncc3c(n2)-c2ccc(Cl)cc2C(c2c(F)cccc2OC)=NC3)ccc1C(=O)O,,"mouse, NB-SD neuroblastoma xenograft",20.8 mg/kg,direction not given,median response score,4
CCn1c2ccccc2c2cc(C(O)c3cccc4ncccc34)ccc21 (centres unmarked),cleaved caspase-3 staining,mouse PDGFB-driven RCAS/tv-a glioma model,"dose not given, end stage",,apoptotic cells,no effect
CC(=O)N1CC(C(=O)Nc2ccc(C3CCCCC3)cc2)C1,liver microsome stability,dog liver microsomes,1 µM,,hepatic clearance,18 mL/min/kg
C[C@@H](NC(=O)N1C(=O)[C@H](Cc2ccnc(N)c2)[C@H]1C(=O)O)C1CCCCC1,,human,"iv infusion, 2.25 mg/kg/h, 24 h",relative to: baseline,time to aPTT Emax,96 h
O=C(COc1ccc(Cl)cc1)NC12CC(c3nnc([C@H]4C[C@@H](OC(F)(F)F)C4)o3)(C1)C2,,"healthy human, PBMC","145 mg once daily, day 14, 4 h post-dose, median, with: sodium arsenite ex vivo",relative to: baseline,ATF4 protein change,-80.8%
Cc1oncc1C(=O)Nc1ccc(C(F)(F)F)cc1,refers to: dihydroorotate,"female CD-1 mice, pooled urine","oral, 30 mg/kg daily, 8-24 h after dose 10",,DHO concentration,20800 ± 2480 µM
C[C@H](Oc1ccc(Br)cc1-c1ccon1)C(=O)O,first response peak,"human, tibialis anterior muscle","200 mg, 30 Hz, single ascending dose",,difference from placebo,6.11%
CN(C)C(=O)Nc1cccc(-c2ccc(N(C)C)cc2)c1,MRI,"mouse, high-fat diet",dose not given,,change in total fat,-0.775 g and 0.699 g and 0.475 g and -1.05 g and -1.3 g
Cc1n[nH]c2ccc(-c3cc(OC[C@@H](N)Cc4ccccc4)cnc3-c3ccoc3)cc12,"kinase binding, competitor, MIB/MS competition, refers to: RTK1",Candida albicans cell lysate,10 µM,relative to: DMSO,log2 fold change,-1.04
CC[C@@H]1[C@H](F)C(=O)N[C@@H]1COc1nccc2cc(C(N)=O)c(OC)cc12,"ATP-site probe binding, ActivX profiling, refers to: MARK2, MARK3",THP-1 cell lysate,"0.04 mM, Lys2 site",,inhibition,-13.3%
Cc1ccc(C(=O)Nc2ccnc(S(N)(=O)=O)c2)c(N2CCCC(F)(F)CC2)n1,,rhesus macaque,"intravenous, 1.3 mg/kg",relative to: vehicle,capsaicin flare,decreased
N#Cc1ccn2c(-c3ccncc3)c(-c3ccc(F)cc3)nc2c1,"kinase binding, competitor, MIB/MS competition, refers to: YPK1",Candida albicans cell lysate,100 nM,relative to: DMSO,log2 fold change,-0.146
N=C(N)NCCC[C@H](NC(=O)[C@H](CCCNC(=N)N)NC(=O)[C@H](CCCCN)NC(=O)[C@H](CCC(N)=O)NC(=O)[C@H](CCCCN)NC(=O)[C@H](Cc1ccc(O)cc1)NC(=O)[C@@H](N)CCCCN)C(=O)N[C@@H](CO)C(=O)N[C@@H](Cc1ccc(O)cc1)C(=O)N[C@@H](CCCCN)C(=O)O,air evaporative stimulus,dentin hypersensitivity patients,"5 µg/tooth single, day 22, phase 1/2a","relative to: baseline, direction not given",Schiff sensitivity score change,-0.67 ± 0.82
O=C(O)CNC(=O)Cc1ccccc1,,"ventricular cardiomyocytes, C57BL/6 mouse","dose not given, 0.208 s",,sarcomere length,1.62 µm
CN(C)C(=O)c1cc2cnc(Nc3ccc(N4CCNCC4)cn3)nc2n1C1CCCC1,"RNA-seq GSEA, refers to: HALLMARK_GLYCOLYSIS",MB002 tumour,"concentration not given, in vivo","relative to: vehicle, direction not given",normalized enrichment score,1.86
CC(c1cc2ccccc2s1)N(O)C(N)=O (centres unmarked),refers to: LTB4,human whole blood,"3 µM, with: Escherichia coli",,amount,207 ± 164 pg/mL blood
O=C(O)CSc1nnc(Br)n1-c1ccc(C2CC2)c2ccccc12,,"mouse, chronic hyperuricaemia model, serum",dose not given,,blood urea nitrogen,12.4 mM and 8.74 mM and 11.2 mM and 15.5 mM and 19.9 mM and 12.5 mM
CN[C@@H]1COc2c(S(=O)(=O)NC(=O)Nc3c4c(cc5c3CCC5)CCC4)cnn2C1,refers to: IL-1β,"human participants, whole blood ex vivo","150 mg single dose, 8 h, with: LPS/ATP",relative to: baseline,inhibition,97.1%
CCO,,supine,"concentration not given, 0 to 4 h",relative to: baseline,maximal mean DBP decrease,13.7 mmHg
CCCCCCCCCCCCCCCC(=O)N[C@@H](CCC(=O)NCCCC[C@H](NC(=O)CCOCCOCCOCCOCCNC(=O)CCc1cn(CC(=O)N[C@@H](CCC(=O)NCCCC[C@H](NC(=O)[C@H](C)NC(=O)[C@H](C)NC(=O)[C@H](CCC(N)=O)NC(=O)CNC(=O)[C@H](CCC(=O)O)NC(=O)[C@H](CC(C)C)NC(=O)[C@H](Cc2ccc(O)cc2)NC(=O)[C@H](CO)NC(=O)[C@H](CO)NC(=O)[C@@H](NC(=O)[C@H](CC(=O)O)NC(=O)[C@H](CO)NC(=O)[C@@H](NC(=O)[C@H](Cc2ccccc2)NC(=O)[C@@H](NC(=O)CNC(=O)[C@H](CCC(=O)O)NC(=O)[C@H](C)NC(=O)[C@@H](N)Cc2cnc[nH]2)[C@@H](C)O)[C@@H](C)O)C(C)C)C(=O)N[C@@H](CCC(=O)O)C(=O)N[C@@H](Cc2ccccc2)C(=O)N[C@H](C(=O)N[C@@H](C)C(=O)N[C@@H](Cc2c[nH]c3ccccc23)C(=O)N[C@@H](CC(C)C)C(=O)N[C@H](C(=O)N[C@@H](CCCNC(=N)N)C(=O)NCC(=O)N[C@@H](CCCNC(=N)N)C(=O)NCC(=O)O)C(C)C)[C@@H](C)CC)C(=O)O)nn1)C(=O)NCCOCCOCCOCCOCCC(=O)N[C@@H](CCCCNC(=O)CC[C@H](NC(=O)CCCCCCCCCCCCCCC)C(=O)O)C(=O)OC)C(=O)O,,db/db mouse,"subcutaneous, 100 nmol/kg single, 0 to 96 h",relative to: baseline,blood glucose AUC(0-96),7800 ± 572%
CCOc1cc([C@@H](CS(C)(=O)=O)N2C(=O)c3cccc(NC(C)=O)c3C2=O)ccc1OC,,"Balb/c mice, oxazolone atopic dermatitis","day 23, unit not given",relative to: vehicle,ear thickness difference,-0.158
N#Cc1ccc2c(-c3ccncc3)c(-c3ccc(F)cc3)nn2c1,"kinase binding, competitor, MIB/MS competition, refers to: CTK1",Candida albicans cell lysate,1 µM,relative to: DMSO,log2 fold change,-0.64
OC(CCN1CCCCC1)(c1ccccc1)C1CC2C=CC1C2 (centres unmarked),resting-state EEG,healthy elderly humans,"oral, 2 mg, eyes open, LS mean",,EEG Alpha1-power Pz-O2,6.6 µV²
O=C(c1ccc([C@H]2[C@@H](F)[C@@H](F)C[C@@H](F)[C@H]2F)cc1)N1CC(O)C1,liver microsome stability,human liver microsomes,"1 µM, without NADPH",,hepatic clearance,3.9 mL/min/kg
N#Cc1ccc(Oc2ccc3c(c2)COB3O)cc1,,"Balb/c mice, oxazolone atopic dermatitis","day 23, unit not given",relative to: vehicle,ear thickness difference,-0.144
C[C@H]1O[C@@H](O[C@H]2CC[C@@]3(C)[C@@H](CC[C@]4(C)[C@@H]3C=C[C@]35OC[C@@]6(CCC(C)(C)C[C@H]63)[C@@H](O)C[C@]54C)[C@]2(C)CO)[C@H](O)[C@@H](O[C@@H]2O[C@H](CO)[C@@H](O)[C@H](O)[C@H]2O)[C@H]1O,,"Mus musculus, chronic-plus-binge ethanol-fed, liver","oral, 5 mg/kg/day, 168 h, dosed for 7 days",,hepatic total cholesterol,0.151 mmol/g protein and 0.149 mmol/g protein and 0.154 mmol/g protein and 0.166 mmol/g protein and 0.173 mmol/g protein
CC(C)C[C@@H](C=O)NC(=O)[C@H](CC(C)C)NC(=O)[C@H](CC(C)C)NC(=O)OCc1ccccc1,refers to: Ub(G76V)-GFP,,0.039 µM,,degradation rate constant,0.0246 min⁻¹
Cc1cn(-c2ccc3n(c2=O)CCN([C@@H](C)[C@@H]2CC[C@H](c4cc(F)c(Cl)cc4C(F)(F)F)O2)C3=O)cn1,,"human, CSF","150 mg, at Tmax, single dose",relative to: baseline,placebo-adjusted total Abeta change,7.97%
N#Cc1ccc2c(c1)[C@H]1CCCN(C(=O)c3ccc4[nH]cnc4c3)[C@H]1C2,refers to: androstenedione,"human female, Phase II trial","oral, 240 mg once daily, HPA axis, mean",,change from baseline,2.33 nmol/L
N#CC[C@H](C1CCCC1)n1cc(-c2ncnc3[nH]ccc23)cn1,,"Balb/c mice, oxazolone atopic dermatitis","day 14, unit not given",relative to: vehicle,ear thickness difference,-0.214
c1ccc(-c2n[nH]cc2-c2ccnc3ccccc23)nc1,"kinase binding, competitor, MIB/MS competition, refers to: YPK1",Candida albicans cell lysate,10 µM,relative to: DMSO,log2 fold change,1.56
O=C1Nc2cc3[nH]nc(-c4ccncc4)c3cc2CN1Cc1ccccc1,RECIST v1.1,"human, relapsed or refractory advanced solid tumours","intravenous, 9.6 mg/kg, pooled schedules",,"progressive disease, best response",78%
C[C@H]1C[C@H]2CSC(N)=N[C@@]2(c2nc(NC(=O)c3ccc(OC(F)F)cn3)cs2)CO1,refers to: Aβx-40,"healthy adults, plasma","400 mg single dose, 6 h post-dose",relative to: placebo,percent change from baseline,-58.3%
CC(C)NCC(O)c1ccc(O)c(O)c1 (centres unmarked),,"ventricular cardiomyocytes, C57BL/6 mouse","dose not given, 0.24 s",,sarcomere length,1.56 µm
NC/C(=C\F)COc1cccc(Cn2c(=S)[nH]c(=O)c3[nH]cnc32)c1,,"Mus musculus, carrageenan air pouch exudate","3 mg/kg, 12 h, λ-carrageenan-induced oedema",,exudate volume,3.5 mL and 3.9 mL and 3 mL and 3.4 mL and 3.6 mL
CC(C)[C@H](NC(=O)[C@H](Cc1ccc(O)cc1)NC(=O)[C@H](Cc1ccc(O)cc1)NC(=O)[C@@H]1CCCN1C(=O)[C@H](CCC(=O)O)NC(=O)[C@H](CCC(=O)O)NC(=O)[C@H](Cc1c[nH]c2ccccc12)NC(=O)[C@@H]1CCCN1C(=O)[C@@H](NC(=O)[C@H](CCC(N)=O)NC(=O)c1ccc2c(c1)C(=O)OC21c2ccc(O)cc2Oc2cc(O)ccc21)C(C)C)C(=O)N[C@H](C(=O)N[C@@H](CCCCN)C(=O)N[C@@H](CCCCN)C(=O)N[C@@H](CO)C(=O)N[C@@H](CO)C(=O)NCC(=O)NCC(N)=O)C(C)C,added benefit of NERVE,"human head and neck surgery, nerves","500 mg, added benefit",relative to: white light,share of responses,0%
O=C1Nc2ccccc2C1=Cc1ccccn1,ferric chloride carotid thrombosis,rat,"oral, 2.8 mg/kg, 2 h before thrombosis",,occlusion time prolongation,22.4%
C=CCn1c(=O)c2cnc(Nc3ccc(N4CCN(C)CC4)cc3)nc2n1-c1ccc2c(n1)[C@@](O)(CC)CC2,,"JIMT-1 xenograft, NOD/SCID mouse","oral, 60 mg/kg once daily for 28 days, day 29",relative to: control,tumour growth inhibition,67.7%

# A few entries again:
SMILES,test,system,conditions,scale,endpoint,value
Cc1ccc(C(=O)Nc2ccnc(S(N)(=O)=O)c2)c(N2CCCC(F)(F)CC2)n1,,rhesus macaque,"intravenous, 1.3 mg/kg",relative to: vehicle,capsaicin flare,decreased
C[C@@H](NC(=O)N1C(=O)[C@H](Cc2ccnc(N)c2)[C@H]1C(=O)O)C1CCCCC1,,human,"iv infusion, 2.25 mg/kg/h, 24 h",relative to: baseline,time to aPTT Emax,96 h
CCCCCCCCCCCCCCCC(=O)N[C@@H](CCC(=O)NCCCC[C@H](NC(=O)CCOCCOCCOCCOCCNC(=O)CCc1cn(CC(=O)N[C@@H](CCC(=O)NCCCC[C@H](NC(=O)[C@H](C)NC(=O)[C@H](C)NC(=O)[C@H](CCC(N)=O)NC(=O)CNC(=O)[C@H](CCC(=O)O)NC(=O)[C@H](CC(C)C)NC(=O)[C@H](Cc2ccc(O)cc2)NC(=O)[C@H](CO)NC(=O)[C@H](CO)NC(=O)[C@@H](NC(=O)[C@H](CC(=O)O)NC(=O)[C@H](CO)NC(=O)[C@@H](NC(=O)[C@H](Cc2ccccc2)NC(=O)[C@@H](NC(=O)CNC(=O)[C@H](CCC(=O)O)NC(=O)[C@H](C)NC(=O)[C@@H](N)Cc2cnc[nH]2)[C@@H](C)O)[C@@H](C)O)C(C)C)C(=O)N[C@@H](CCC(=O)O)C(=O)N[C@@H](Cc2ccccc2)C(=O)N[C@H](C(=O)N[C@@H](C)C(=O)N[C@@H](Cc2c[nH]c3ccccc23)C(=O)N[C@@H](CC(C)C)C(=O)N[C@H](C(=O)N[C@@H](CCCNC(=N)N)C(=O)NCC(=O)N[C@@H](CCCNC(=N)N)C(=O)NCC(=O)O)C(C)C)[C@@H](C)CC)C(=O)O)nn1)C(=O)NCCOCCOCCOCCOCCC(=O)N[C@@H](CCCCNC(=O)CC[C@H](NC(=O)CCCCCCCCCCCCCCC)C(=O)O)C(=O)OC)C(=O)O,,db/db mouse,"subcutaneous, 100 nmol/kg single, 0 to 96 h",relative to: baseline,blood glucose AUC(0-96),7800 ± 572%
CN(C)C(=O)Nc1cccc(-c2ccc(N(C)C)cc2)c1,MRI,"mouse, high-fat diet",dose not given,,change in total fat,-0.775 g and 0.699 g and 0.475 g and -1.05 g and -1.3 g
C[C@H]1C[C@H]2CSC(N)=N[C@@]2(c2nc(NC(=O)c3ccc(OC(F)F)cn3)cs2)CO1,refers to: Aβx-40,"healthy adults, plasma","400 mg single dose, 6 h post-dose",relative to: placebo,percent change from baseline,-58.3%
N#Cc1ccc(Oc2ccc3c(c2)COB3O)cc1,,"Balb/c mice, oxazolone atopic dermatitis","day 23, unit not given",relative to: vehicle,ear thickness difference,-0.144
